Measurements from different studies.
± gives the spread as reported.

CCc1nc(N)nc(N)c1OCCCOc1ccccc1CCC(=O)O — intrinsic clearance (human liver microsomes; 39.7 mg protein/g liver): < 0.4 mL/min/g liver
C=CC(=O)N1CC2(CCN(c3nc4c(c(-c5c(C)ccc6[nH]ncc56)c3C#N)C[C@H]3C[C@@H]4C3(C)C)C2)C1 — intrinsic clearance (human liver microsomes): 231 µL/min/mg
Nc1nc(N)c(OCCCOc2ccccc2CCC(=O)O)c(CCCCO)n1 — intrinsic clearance (human liver microsomes; 39.7 mg protein/g liver): < 0.4 mL/min/g liver
C=CC[C@@H]1/C=C(\C)C[C@H](C)C[C@H](OC)[C@H]2O[C@@](O)(C(=O)C(=O)N3CCCC[C@H]3C(=O)O[C@H](/C(C)=C/[C@@H]3CC[C@@H](O)[C@H](OC)C3)[C@H](C)[C@@H](O)CC1=O)[C@H](C)C[C@@H]2OC — intrinsic clearance (pooled human liver microsomes): 0.81 mL/min/mg protein
C[C@@H]1CN(CC(=O)N2CC(C)(C)c3nc(CO)c(Cc4ccc(F)cc4)cc32)[C@@H](CN2CCOC[C@H]2C)CN1 — intrinsic clearance (microsomes, male mouse liver, CD-1; 1 µM): 18 ± 3.8 µL/min/mg
O=C(c1ccc(F)cc1)C1CCN(CCn2c(=O)[nH]c3ccccc3c2=O)CC1 — intrinsic clearance (dog liver microsomes): 44.2 mL/min/kg
CN1CCN(c2cccc(-c3ccc4ncnc(Nc5ncco5)c4c3)c2)CC1 — intrinsic clearance (human liver microsomes): 31 µL/min/mg
N#Cc1ccc(Nc2nc(N)cc(Oc3c(F)cc(-c4ccc(C#N)cc4)cc3F)n2)cc1 — intrinsic clearance (human liver microsomes; 1 µM): 18.6 µL/min/mg
CCC1=C(CC)/C(=C/NC23C[C@H]4C[C@@H](C2)C[C@@H](C3)C4)N=C1c1ccc(Cl)[nH]1 — intrinsic clearance (mouse liver microsomes; 1 µM, pH 7.4): -22.5 µL/min/mg
CCOCC(=O)N1CCC[C@H](C(=O)NCc2nc(-c3ccccc3)cs2)C1 — intrinsic clearance (human liver microsomes; 0.5 µM): 26 µL/min/mg protein
Nc1nc(N)c(OCCCOc2ccccc2CCC(=O)O)c(-c2ccccc2)n1 — intrinsic clearance (mouse liver microsomes; 0.5 µM, 48 mg protein/g liver): 1.3 mL/min/g liver
COc1cc2[nH]c(C)c(-c3cccnc3)c(=O)c2cc1Cl — intrinsic clearance (human liver microsomes; 1 µM): 11 µL/min/mg
COc1ccc(-c2nc(N)nc(N)c2OCCCOc2ccccc2CCC(=O)O)cc1 — intrinsic clearance (mouse liver microsomes; 0.5 µM, 48 mg protein/g liver): < 0.5 mL/min/g liver
Cc1cc2c(c(=O)[nH]1)C(=O)O/C2=C\c1cc(F)ccc1OCCN1CCOCC1 — intrinsic clearance (rat liver microsomes): 259 mL/min/g protein
CCC1=C(CC)/C(=C/NC2CCCCCCC2)N=C1c1ccc(Cc2ccc(OC)cc2)[nH]1 — intrinsic clearance (mouse liver microsomes; 1 µM, pH 7.4): -6.21 µL/min/mg
Clc1cncc(OC[C@@H]2CN(CCN3CCc4ccccc43)CCO2)c1 — intrinsic clearance (mouse liver microsomes; 0.5 µM): 25 mL/min/g
CCOc1ccc2ccc(=O)oc2c1 — intrinsic clearance (rat hepatocytes; scaled to liver): 232 mL/min/kg
CCc1ccc(C2=N/C(=C\NC3CCCCCCC3)C(C)=C2C)[nH]1 — intrinsic clearance (human liver microsomes; 1 µM, pH 7.4): -1.16 µL/min/mg
O=C1O/C(=C\c2cc(F)ccc2OCCN2CC[C@@H](F)C2)c2cc(Cc3cccc(F)c3)[nH]c(=O)c21 — intrinsic clearance (rat liver microsomes; extrapolated in vivo): 69.8 mL/min
O=c1ccc2ccc(O)cc2o1 — intrinsic clearance (monkey liver microsomes): 565 µL/min/mg protein
O=C(Nc1ccc(OC(F)(F)Cl)cc1)c1cnc(N2CC[C@@H](O)C2)c(-c2ccn[nH]2)c1 — intrinsic clearance (rat liver microsomes; 1 µM, pH 7.4, with: shikonin 10 µM): 3.1 ± 0.8 µL/min/mg
C#C[C@]1(OC(C)=O)CC[C@H]2[C@@H]3CCC4=CC(=NO)CC[C@@H]4[C@H]3CC[C@@]21CC (mixture of isomers) — intrinsic clearance (refers to: esterase; human intestinal microsomes): 32 µL/min/mg
C[C@@H]1CN(CC(=O)N2CC(C)(C)c3ncc(Cc4ccc(F)cc4)cc32)[C@@H](CN2CCOC[C@H]2C)CN1 — intrinsic clearance (cynomolgus liver microsomes; 1 µM): 530 ± 77 µL/min/mg
O=C(Cc1ccc2ccccc2c1)Nc1cc(C2CCC2)[nH]n1 — intrinsic clearance (mouse liver S9; 1 µM, protein 1 mg/mL): 24.7 ± 1 µL/min/mg protein
C[C@]12C[C@@]34C=CC(=O)[C@@](C)(CCC(=O)Nc5c(O)ccc(C(=O)O)c5O)[C@@H]3[C@H](C[C@@H]1C4)O2 — intrinsic clearance (mouse liver microsomes; 1 µM, pH 7.4, 37 °C, with: NADPH): 13.6 µL/min/mg
Nc1nc(N)c(OCCCOc2ccccc2CCC(=O)O)c(C2CCCCC2)n1 — intrinsic clearance (human liver microsomes; 39.7 mg protein/g liver): 0.54 mL/min/g liver
Cc1ccc2c(c1)nc(/C=C/c1cccc3cccnc13)n2-c1ccccc1 — intrinsic clearance (rat liver microsomes; 1.5 µM): 143 mL/min/kg
O=C(NCCN1CCCC1)c1cc(-c2ccc(CN3CCOCC3)cc2)nc2ccc(F)cc12 — intrinsic clearance (rat hepatocytes): < 0.5 mL/min/g
CCC1=C(CC)/C(=C/NC2CCCCCCC2)N=C1c1ccc(-c2ccc(OC)cc2)[nH]1 — intrinsic clearance (mouse liver microsomes; 1 µM, pH 7.4): -46.6 µL/min/mg
O=C1c2ccccc2CCN1CCCCN1CCN(c2cccc(Cl)c2Cl)CC1 — intrinsic clearance (mouse liver microsomes; 0.5 µM): 31.1 mL/min/g
O=C1O/C(=C\c2cc(F)ccc2OCCN2CCOCC2)c2cc(Cc3cccc(F)c3)[nH]c(=O)c21 — intrinsic clearance (rat liver microsomes): 70.4 mL/min/g protein
CCC1=C(C)/C(=C/NC23C[C@H]4C[C@@H](C2)C[C@@H](C3)C4)N=C1c1ccc(CC)[nH]1 — intrinsic clearance (mouse liver microsomes; 1 µM, pH 7.4): -19.1 µL/min/mg
